# Literature values, collected from citations in different studies.
# Compare with care: the assays were run in different laboratories. ± marks the error that the study gave.
# Organism: HIV-1
# Observed: viral replication
SMILES,cell line,strain,measurement,value
Cc1cn(C2C=CC(COP(=O)(O)OP(=O)(O)OP(=O)(O)O)O2)c(=O)[nH]c1=O (stereo not drawn),CEM/0,IIIB,EC50,1050 ± 350 nM
COc1ccc(N(C)C(=O)[C@H](Cc2ccccc2)NC(=O)NS(=O)(=O)N2CCCc3ccccc32)cc1,,,EC50,110 nM
N#Cc1ccc2c(Oc3ccc(F)cc3OCCn3ccc(=O)[nH]c3=O)cc(F)cc2c1,,wild type,EC50,1.9 nM
COC(=O)NC(C(=O)NN(Cc1ccc(-c2cc3ccccc3s2)cc1)CC(O)(Cc1ccccc1)C(=O)NC1c2ccccc2CC1O)C(C)(C)C (stereo not drawn),MT-4,,EC50,> 10000 nM
Cc1cc(-c2ccc(C#N)cc2)cc(C)c1Nc1ccnc(Nc2ccc(C#N)cc2)n1,,wild type,EC50,1 nM
COC(=O)NC(C(=O)NN(Cc1ccc(Br)cc1)CC(O)(Cc1ccccc1)C(=O)NC1CCOC1)C(C)(C)C (stereo not drawn),MT-4,,EC50,> 10000 nM
Cc1cc(C#N)cc(C)c1Oc1ccnc(NC2CCN(CC(=O)N3CCOCC3)CC2)n1,,wild type,EC50,141 nM
COC(=O)NC(C(=O)NN(Cc1ccc(C=Cc2ccccc2)cc1)CC(O)(Cc1ccccc1)C(=O)NC1c2ccccc2CC1O)C(C)(C)C (stereo not drawn),MT-4,,EC50,> 10000 nM
CC(=O)N[C@H](CCCNC(=N)N)C(=O)N[C@H](CCCNC(=N)N)C(=O)N[C@H](CCCNC(=N)N)C(=O)N[C@H](CCCNC(=N)N)C(=O)N[C@H](CCCNC(=N)N)C(=O)N[C@H](CCCNC(=N)N)C(=O)N[C@H](CCCNC(=N)N)C(=O)N[C@H](CCCNC(=N)N)C(=O)N[C@H](CCCNC(=N)N)C(N)=O,peripheral blood lymphocytes,NL4-3,IC50,3 nM

# For quick reference, copied from above:
SMILES,cell line,strain,measurement,value
Cc1cc(-c2ccc(C#N)cc2)cc(C)c1Nc1ccnc(Nc2ccc(C#N)cc2)n1,,wild type,EC50,1 nM
